Results from different studies.
“And” joins repeats or separate records; there may be more than shown.
Target: Mitogen-activated protein kinase 10 (MAPK10, Homo sapiens, UniProt P53779)
Sequence of UniProt P53779 (whole entry, unmodified, looked up): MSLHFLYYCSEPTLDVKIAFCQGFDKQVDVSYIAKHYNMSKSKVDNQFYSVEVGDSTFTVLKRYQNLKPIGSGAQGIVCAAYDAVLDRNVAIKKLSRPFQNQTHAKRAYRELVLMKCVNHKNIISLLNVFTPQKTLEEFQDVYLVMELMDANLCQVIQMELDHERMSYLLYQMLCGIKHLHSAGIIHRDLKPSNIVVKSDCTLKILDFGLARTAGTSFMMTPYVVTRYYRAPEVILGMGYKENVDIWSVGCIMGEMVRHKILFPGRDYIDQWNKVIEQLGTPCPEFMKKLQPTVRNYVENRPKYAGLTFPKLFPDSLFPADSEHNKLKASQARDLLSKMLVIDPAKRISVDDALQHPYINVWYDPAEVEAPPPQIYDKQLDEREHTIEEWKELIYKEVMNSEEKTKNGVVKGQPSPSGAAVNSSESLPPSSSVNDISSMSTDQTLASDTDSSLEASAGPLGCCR

CN1CCN(Cc2ccc(NC(=O)c3cccc(C#Cc4cnc(N)c5ncccc45)c3)cc2C(F)(F)F)CC1  remaining binding (cell-free assay, competition with immobilised ligand; 50 nM): 60%
O=C=[N][Ru-4]123([n]4c5ccc(O)cc5c5c6c(c7cc(F)c[n+]1c7c54)C(=O)NC6=O)[S+]1CC[S+]2CC[S+]3CC1 (stereo not drawn)  remaining activity (enzyme activity; 100 nM, human enzyme, with: 10 µM ATP; baseline: untreated): 86%
COc1c(OCCCN2CCOCC2)ccc2c1N=C(NC(=O)c1cnc(N)nc1)N1CCN=C21  remaining activity (kinase activity, inhibitor; 1 µM; baseline: untreated control): 85%
CC(=O)N1c2ccc(-c3ccc(CNC(=O)c4cn5cc(-c6cnc(N)nc6)nc(N6CCOCC6)c5n4)cc3)cc2CC[C@@H]1C  remaining binding (KINOMEscan; 10 µM): 57%
COc1ccc(C(=O)/C=C/c2ccccc2-c2c[nH]c3ccc(C#N)cc23)c(O)c1  inhibition (enzyme activity, inhibitor; 20 µM): 10%
COc1cc(Nc2nc(C)cc(-c3cnn4nc(OC)ccc34)n2)cc(C(F)(F)F)c1  remaining binding (KINOMEscan; 1 µM, JNK3; baseline: DMSO): 77%
Cc1[nH]nc2c1N=C(c1ccccc1Cl)c1cnc(N3CCOCC3)cc1N2  inhibition (enzyme activity, inhibitor; 0.5 µM): 12.1%
COC(=O)[C@@]1(C)C=C(C(=O)Nc2cccc(C(=O)Nc3ccc(Nc4nccc(-c5cccnc5)n4)c(C)c3)c2)C(=O)CC1  remaining activity (enzyme activity, inhibitor, radiometric; 1 µM): 1%
O=C(Cc1ccc(OCc2ccccc2)cc1)NC1(C(=O)O)CCN(C(=O)c2ccc(-c3cccc(Cl)c3)cc2)CC1  activity vs control (enzyme activity, inhibitor; 10 µM): 128%
Cc1cnc2nc1Nc1cccc(c1)COC/C=C/COCc1cc(ccc1OCCN1CCOCC1)N2  binding (concentration not given, kinase construct JNK3; baseline: control): 58%
COCC12C(=O)NC3C4(C(OC)CC1O)C1CC5(O)C(OC)C(O)C(OC(C)=O)(C1C5OC(=O)c1ccccc1)C3(O)C(OC)C24 (stereo not drawn)  remaining activity (kinase activity, inhibitor, ProQinase kinase profiling; 25 µM; baseline: control): 95% and 102%
C=CC(=O)Nc1cccc(-c2cnc3[nH]cc(C(=O)NC(C)(C)C)c3n2)c1  inhibition (kinase activity; 0.1 µM): 0%
Cc1cccc(O[C@H]2CCC[C@@H](C(C)CNCc3ccncc3)C2)c1 (relative stereo)  inhibition (kinase activity, kinome panel screening; 1 µM): -2%
CNC(=O)C[C@H](Cc1ccc(C#N)cc1)NC(=O)c1cc(-c2ccc(CN[C@H](C)c3ccc(C)cc3)o2)ccc1Cl  activity vs control (enzyme activity, inhibitor; 1 µM): 105%
CNC(=O)c1cnc(Nc2ccncc2)nc1-c1ccc(C)cc1  remaining binding (cell-free assay, competition with immobilised ligand; 10 µM): 15%
CN1CC[C@@H](COc2cnc(C#N)cc2-c2ccn3nc(NC(=O)C4CC4)cc3c2)C1  inhibition (enzyme activity, inhibitor; 1 µM): -1%
COc1ccc(NC(=O)Nc2ccc3c(c2)C(=O)N(C(C)CO)CC(C)C(CN(C)Cc2ccc4c(c2)OCO4)O3)cc1 (stereo not drawn)  remaining binding (binding, competition with immobilised ligand; 10 µM): 70%
C=CC(=O)N1CCCC(n2c(=O)c3ncccc3n(Cc3ccc(Oc4ccccc4)cc3)c2=O)C1 (stereo not drawn)  remaining binding (cell-free assay, competition with immobilised ligand; 1 µM): 71%
Cc1ccc(-c2c(/C=C(\C#N)C(=O)NC(C)C)n(CCCO)c3ncnc(N)c23)cc1  remaining binding (cell-free assay, competition with immobilised ligand; 1 µM): 100%
Cc1cccc(C2(C(=O)Nc3c[nH]nc3-c3ccccc3)CC2)c1  remaining binding (cell-free assay, competition with immobilised ligand; 10 µM): 34%
NC(=O)C[C@H]1CCc2sc3ncnc(O[C@H]4CC[C@H](N5CCOCC5)CC4)c3c21  inhibition (enzyme activity, inhibitor; 10 µM): -5%

For quick reference, copied from above:
O=C=[N][Ru-4]123([n]4c5ccc(O)cc5c5c6c(c7cc(F)c[n+]1c7c54)C(=O)NC6=O)[S+]1CC[S+]2CC[S+]3CC1 (stereo not drawn)  remaining activity (enzyme activity; 100 nM, human enzyme, with: 10 µM ATP; baseline: untreated): 86%
Cc1cccc(O[C@H]2CCC[C@@H](C(C)CNCc3ccncc3)C2)c1 (relative stereo)  inhibition (kinase activity, kinome panel screening; 1 µM): -2%
Cc1cnc2nc1Nc1cccc(c1)COC/C=C/COCc1cc(ccc1OCCN1CCOCC1)N2  binding (concentration not given, kinase construct JNK3; baseline: control): 58%
COC(=O)[C@@]1(C)C=C(C(=O)Nc2cccc(C(=O)Nc3ccc(Nc4nccc(-c5cccnc5)n4)c(C)c3)c2)C(=O)CC1  remaining activity (enzyme activity, inhibitor, radiometric; 1 µM): 1%
